Experimental data of several laboratories.
Lines come from different studies, so protocols differ.
Sequence of UniProt O15111 (whole entry, looked up): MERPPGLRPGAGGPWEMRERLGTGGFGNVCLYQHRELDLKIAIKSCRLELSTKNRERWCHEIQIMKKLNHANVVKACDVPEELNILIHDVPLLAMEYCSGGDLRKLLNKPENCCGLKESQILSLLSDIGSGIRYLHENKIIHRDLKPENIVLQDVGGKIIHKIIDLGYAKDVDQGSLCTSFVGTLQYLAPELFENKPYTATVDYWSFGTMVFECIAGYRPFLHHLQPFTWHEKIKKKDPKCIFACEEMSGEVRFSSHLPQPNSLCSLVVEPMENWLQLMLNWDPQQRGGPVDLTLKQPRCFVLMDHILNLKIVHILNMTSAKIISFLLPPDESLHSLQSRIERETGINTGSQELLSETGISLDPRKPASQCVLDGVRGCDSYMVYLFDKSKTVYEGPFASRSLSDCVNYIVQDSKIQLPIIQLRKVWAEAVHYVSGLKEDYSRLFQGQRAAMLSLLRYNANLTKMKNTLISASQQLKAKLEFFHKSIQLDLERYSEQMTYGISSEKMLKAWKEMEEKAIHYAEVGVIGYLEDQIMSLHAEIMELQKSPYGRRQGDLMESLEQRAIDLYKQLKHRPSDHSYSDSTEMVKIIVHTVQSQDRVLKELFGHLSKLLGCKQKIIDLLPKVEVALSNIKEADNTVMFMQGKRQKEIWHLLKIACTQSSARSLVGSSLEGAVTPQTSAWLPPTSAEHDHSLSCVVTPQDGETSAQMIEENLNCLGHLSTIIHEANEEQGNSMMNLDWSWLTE
Sequence of UniProt P27448 (whole entry, looked up): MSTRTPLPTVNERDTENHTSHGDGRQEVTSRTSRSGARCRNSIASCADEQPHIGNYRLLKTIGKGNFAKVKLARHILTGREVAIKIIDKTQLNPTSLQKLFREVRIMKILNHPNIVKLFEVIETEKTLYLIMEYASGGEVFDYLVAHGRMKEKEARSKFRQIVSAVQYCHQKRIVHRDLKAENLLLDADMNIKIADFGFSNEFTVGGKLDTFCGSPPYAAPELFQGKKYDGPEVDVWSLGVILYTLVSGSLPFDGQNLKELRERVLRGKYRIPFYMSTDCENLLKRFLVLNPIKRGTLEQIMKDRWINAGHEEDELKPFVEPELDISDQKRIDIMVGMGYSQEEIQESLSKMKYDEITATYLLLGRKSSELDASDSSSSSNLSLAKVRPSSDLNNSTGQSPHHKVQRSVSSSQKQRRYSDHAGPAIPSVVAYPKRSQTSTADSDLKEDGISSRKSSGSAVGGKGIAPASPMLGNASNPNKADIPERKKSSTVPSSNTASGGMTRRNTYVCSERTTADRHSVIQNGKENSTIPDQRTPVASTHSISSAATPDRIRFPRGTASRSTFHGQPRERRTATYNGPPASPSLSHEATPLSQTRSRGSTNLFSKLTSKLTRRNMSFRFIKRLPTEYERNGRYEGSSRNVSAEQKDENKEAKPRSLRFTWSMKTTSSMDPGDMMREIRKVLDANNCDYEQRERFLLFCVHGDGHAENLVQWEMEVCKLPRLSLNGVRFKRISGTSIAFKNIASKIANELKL
Sequence of UniProt P04049 (whole entry, looked up): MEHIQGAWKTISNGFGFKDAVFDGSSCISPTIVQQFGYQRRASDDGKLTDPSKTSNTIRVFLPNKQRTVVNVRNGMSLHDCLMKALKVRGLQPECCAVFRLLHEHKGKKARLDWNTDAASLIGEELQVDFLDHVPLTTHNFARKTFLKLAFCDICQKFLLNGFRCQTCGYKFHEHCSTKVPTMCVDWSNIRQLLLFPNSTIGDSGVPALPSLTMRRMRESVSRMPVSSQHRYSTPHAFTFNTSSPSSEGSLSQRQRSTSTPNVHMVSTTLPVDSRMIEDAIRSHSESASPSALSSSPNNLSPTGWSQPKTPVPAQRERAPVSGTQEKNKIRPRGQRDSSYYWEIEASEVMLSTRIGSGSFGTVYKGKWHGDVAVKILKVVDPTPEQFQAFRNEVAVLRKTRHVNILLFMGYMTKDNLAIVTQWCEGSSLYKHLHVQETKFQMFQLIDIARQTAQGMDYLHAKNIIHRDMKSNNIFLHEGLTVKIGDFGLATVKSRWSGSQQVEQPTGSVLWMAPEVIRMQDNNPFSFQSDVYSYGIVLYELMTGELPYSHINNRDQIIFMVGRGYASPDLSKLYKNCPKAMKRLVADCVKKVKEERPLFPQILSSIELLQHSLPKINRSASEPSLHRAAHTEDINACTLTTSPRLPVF
Sequence of UniProt P08922 (whole entry, looked up): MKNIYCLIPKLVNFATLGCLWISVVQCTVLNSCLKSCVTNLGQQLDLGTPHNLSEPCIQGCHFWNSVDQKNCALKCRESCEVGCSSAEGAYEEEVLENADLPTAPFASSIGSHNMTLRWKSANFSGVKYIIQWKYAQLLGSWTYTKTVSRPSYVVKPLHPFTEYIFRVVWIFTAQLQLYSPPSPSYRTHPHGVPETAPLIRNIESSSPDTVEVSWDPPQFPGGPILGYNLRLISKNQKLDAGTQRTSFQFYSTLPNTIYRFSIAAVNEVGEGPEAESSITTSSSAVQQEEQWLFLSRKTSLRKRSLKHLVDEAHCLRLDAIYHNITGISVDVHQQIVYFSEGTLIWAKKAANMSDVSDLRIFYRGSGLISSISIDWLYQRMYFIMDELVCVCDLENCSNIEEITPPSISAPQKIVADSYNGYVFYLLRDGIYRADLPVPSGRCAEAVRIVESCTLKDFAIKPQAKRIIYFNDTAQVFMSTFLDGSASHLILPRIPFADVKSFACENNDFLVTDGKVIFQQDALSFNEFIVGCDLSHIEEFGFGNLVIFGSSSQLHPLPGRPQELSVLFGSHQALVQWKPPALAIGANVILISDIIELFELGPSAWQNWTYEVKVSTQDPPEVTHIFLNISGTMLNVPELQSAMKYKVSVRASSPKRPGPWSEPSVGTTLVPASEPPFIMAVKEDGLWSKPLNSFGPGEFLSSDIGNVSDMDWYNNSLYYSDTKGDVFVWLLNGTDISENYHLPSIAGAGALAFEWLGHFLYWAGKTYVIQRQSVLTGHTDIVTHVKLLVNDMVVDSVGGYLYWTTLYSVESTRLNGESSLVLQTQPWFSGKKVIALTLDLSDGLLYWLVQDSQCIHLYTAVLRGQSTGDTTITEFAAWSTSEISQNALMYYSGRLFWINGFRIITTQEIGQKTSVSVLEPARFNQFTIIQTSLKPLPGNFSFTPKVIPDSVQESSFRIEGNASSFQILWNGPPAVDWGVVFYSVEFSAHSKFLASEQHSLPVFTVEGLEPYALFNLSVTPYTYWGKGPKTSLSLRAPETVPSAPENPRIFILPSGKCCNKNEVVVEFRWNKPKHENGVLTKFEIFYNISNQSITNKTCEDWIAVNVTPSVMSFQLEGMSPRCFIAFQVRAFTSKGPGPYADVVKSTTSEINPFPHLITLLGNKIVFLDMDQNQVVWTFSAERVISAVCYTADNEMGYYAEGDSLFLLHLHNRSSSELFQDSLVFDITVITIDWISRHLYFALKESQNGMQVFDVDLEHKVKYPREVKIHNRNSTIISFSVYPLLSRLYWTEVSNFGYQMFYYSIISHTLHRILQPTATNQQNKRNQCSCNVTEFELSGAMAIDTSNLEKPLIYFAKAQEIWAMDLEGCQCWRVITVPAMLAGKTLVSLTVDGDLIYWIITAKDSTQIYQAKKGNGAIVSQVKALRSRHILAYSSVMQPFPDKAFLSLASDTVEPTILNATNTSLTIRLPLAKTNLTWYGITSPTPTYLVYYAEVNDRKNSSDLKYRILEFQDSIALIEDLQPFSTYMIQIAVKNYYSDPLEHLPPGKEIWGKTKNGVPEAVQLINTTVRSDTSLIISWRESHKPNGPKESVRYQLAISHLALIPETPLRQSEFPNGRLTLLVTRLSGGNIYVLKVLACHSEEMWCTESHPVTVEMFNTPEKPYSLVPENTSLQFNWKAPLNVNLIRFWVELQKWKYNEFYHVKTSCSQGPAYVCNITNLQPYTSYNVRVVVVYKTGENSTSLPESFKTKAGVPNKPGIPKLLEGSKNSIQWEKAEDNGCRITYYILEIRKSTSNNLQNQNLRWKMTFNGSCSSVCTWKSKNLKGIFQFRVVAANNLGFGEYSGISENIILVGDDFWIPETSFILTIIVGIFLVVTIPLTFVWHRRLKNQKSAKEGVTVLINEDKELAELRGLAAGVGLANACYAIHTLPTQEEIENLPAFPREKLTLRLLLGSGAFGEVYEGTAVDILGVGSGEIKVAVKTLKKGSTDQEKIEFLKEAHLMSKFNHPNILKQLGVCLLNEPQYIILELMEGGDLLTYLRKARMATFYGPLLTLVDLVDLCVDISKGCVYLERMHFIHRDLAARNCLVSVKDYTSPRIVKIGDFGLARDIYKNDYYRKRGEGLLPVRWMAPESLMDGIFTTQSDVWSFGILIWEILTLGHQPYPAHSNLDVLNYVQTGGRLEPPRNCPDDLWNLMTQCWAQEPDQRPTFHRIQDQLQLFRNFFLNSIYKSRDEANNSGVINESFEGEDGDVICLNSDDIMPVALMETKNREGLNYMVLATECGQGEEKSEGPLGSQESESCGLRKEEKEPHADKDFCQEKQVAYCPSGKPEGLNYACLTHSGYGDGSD

Compound	target or system	test	setting	endpoint	result
S=C(Nc1ccccc1)Nc1ccc(Oc2nnc(-c3ccc(Cl)cc3)c3ccccc23)cc1	HepG2	cell growth or viability, MTT	0.625 µM, 24 h	viability	96.8%
COc1ccc(NC(=O)c2c(Nc3ccccc3)sc(C(=O)NN=Cc3ccc(C)cc3)c2NC(C)=O)cc1	HepG2	cell growth or viability, SRB	10 nM, 48 h	viability	96.3%
CCCn1cnc2ccc(-c3ccc(NC(=O)CNCC)nc3)cc2c1=O	HCC827	cell growth or viability, CCK-8	72 h	IC50	2.55 µM
COCCC(=O)Nc1ccccc1/N=c1\cc(-c2ccc3nc(N)oc3c2)oc2ccccc12	NCI-H1975	cell growth or viability, CCK-8	1 µM	inhibition	2.94%
CC[C@@H](C)Nc1ccnc(Nc2cccc(-c3cccnc3)c2)n1	BJ	cell growth or viability, ATP luminescence	72 h	EC50	> 6 µM
CCCC(=O)Nc1ccc(-c2ccc3ncn(Cc4ccccc4)c(=O)c3c2)cn1	HCC827	cell growth or viability, CCK-8	72 h	IC50	> 10 µM
O=C(Nc1ccccc1)Nc1ccc(Oc2nnc(-c3ccc(Cl)cc3)c3ccccc23)cc1	HepG2	cell growth or viability, MTT	78 nM	cell death	44.1%
c1ccc(-c2cccc(Nc3nccc(NC4CCCCC4)n3)c2)nc1	BJ	cell growth or viability, ATP luminescence	72 h	EC50	12.1 µM
CCCCC(=O)Nc1cc(C)c(-c2ccc3ncn(CCC)c(=O)c3c2)cn1	HCC827	cell growth or viability, CCK-8	72 h	IC50	2.58 µM
CC(C)Nc1ccnc(Nc2cccc(C(C)(C)C)c2)n1	BJ	cell growth or viability, ATP luminescence	72 h	EC50	> 14 µM
CC#CCn1cnc2ccc(-c3ccc(NC(=O)CCCC)nc3)cc2c1=O	NCI-H1975	cell growth or viability, CCK-8	72 h	IC50	> 10 µM
Cc1ccc(N(O)N=Nc2ccc(S(=O)(=O)Nc3cc(C)on3)cc2)cc1	–	DPPH scavenging, absorbance	300 µg/mL	inhibition	32.4%
CC(=NNC(=O)c1ccc(N)cc1)c1ccc(Nc2nnc(-c3ccc(Cl)cc3)c3ccccc23)cc1	HepG2	cell growth or viability, MTT	0.312 µM	cell death	1.77%
CC(C)Nc1ccnc(Nc2cccc(-c3ccncc3)c2)n1	BJ	cell growth or viability, ATP luminescence	72 h	EC50	> 16 µM
CCCCn1cnc2ccc(-c3ccc(NC(=O)C4CCCC4)nc3)cc2c1=O	HCC827	cell growth or viability, CCK-8	72 h	IC50	3.63 µM
CC(=O)Nc1ccc(Oc2nnc(-c3ccc(Cl)cc3)c3ccccc23)cc1	HepG2	cell growth or viability, MTT	0.156 µM	cell death	16.1%
CCCCn1cnc2ccc(-c3ccc(NC(=O)Nc4ccc(OC)cc4)nc3)cc2c1=O	HCC827	cell growth or viability, CCK-8	72 h	IC50	1.12 µM

Compound	target or system	test	setting	endpoint	result
Cc1cc(NS(=O)(=O)c2ccc(N=NN(C)O)cc2)no1	–	DPPH scavenging, absorbance	240 µg/mL	inhibition	40.6%
CNc1ncc2c(/C=C/C(=O)N3CCC(OC)CC3)nn(Cc3cccc(C(F)(F)F)c3)c2n1	Proto-oncogene tyrosine-protein kinase ROS (ROS1, Homo sapiens, UniProt P08922)	enzyme activity, inhibitor, radiometric	1 µM	remaining activity	79%
CC(=NNC(=S)Nc1ccccc1)c1ccc(Nc2nnc(-c3ccc(Cl)cc3)c3ccccc23)cc1	HepG2	cell growth or viability, MTT	0.625 µM	cell death	20.5%
COc1cccc(-c2cccc(Nc3nccc(NC(C)C)n3)c2)c1	BJ	cell growth or viability, ATP luminescence	72 h	EC50	13.9 µM
COc1cc(-c2cncc3c2CN(C)Cc2cc(N4CCNCC4)ccc2-3)cc(OC)c1OC	RAF proto-oncogene serine/threonine-protein kinase (RAF1, Homo sapiens, UniProt P04049)	enzyme activity, inhibitor	1 µM	remaining activity	101%
CCCCC(=O)Nc1ccc(-c2cnc3ncn(CCC)c(=O)c3c2)cn1	HCC827	cell growth or viability, CCK-8	72 h	IC50	> 10 µM
C=CC(=O)N1CCC(COCC(=O)N2CCN(c3nc(-c4cnc(N)nc4C(F)F)nc(N4CCOC[C@@H]4C)n3)CC2)CC1	MAP/microtubule affinity-regulating kinase 3 (MARK3, Homo sapiens, UniProt P27448)	binding, competition with immobilised ligand	1 µM	remaining binding	100%
CNC(=O)c1cc(Oc2ccc(NC(=O)Nc3ccc(Cl)c(C(F)(F)F)c3)cc2)ccn1	HepG2	cell growth or viability, SRB	1 nM, 48 h	viability	100%
CCC(=CCc1c(O)cc2c(c1O)C(=O)C[C@@H](c1ccc(O)cc1)O2)CC	HeLa	cell growth or viability, MTT	0.781 µM, 48 h	inhibition	-3.76%
CC(C)Nc1ccnc(Nc2cccc(-c3nccs3)c2)n1	BJ	cell growth or viability, ATP luminescence	72 h	EC50	> 21 µM
CCCCn1cnc2ccc(-c3ccc(NC(=O)Nc4ccc(C)cc4)nc3)cc2c1=O	NCI-H1975	cell growth or viability, CCK-8	72 h	IC50	> 10 µM
Cc1cc([C@@H](C)Nc2ccccc2C(=O)O)c2nc(N3CCC(F)(F)CC3)c(C#N)c(=O)n2c1	Inhibitor of nuclear factor kappa-B kinase subunit alpha (CHUK, Homo sapiens, UniProt O15111)	binding, competition with immobilised ligand	10 µM	remaining binding	76%
CC(=NNC(=O)c1ccncc1)c1ccc(Nc2nnc(-c3ccc(Cl)cc3)c3ccccc23)cc1	HepG2	cell growth or viability, MTT	0.312 µM, 24 h	viability	35.3%
c1ccc(-c2ccc(Nc3nccc(NC4CCCCC4)n3)cc2)nc1	BJ	cell growth or viability, ATP luminescence	72 h	EC50	9.18 µM
O=C(Nc1ccc(Oc2nnc(-c3ccc(Cl)cc3)c3ccccc23)cc1)c1ccccc1	HepG2	cell growth or viability, MTT	0.625 µM, 24 h	viability	12.1%
COc1ccc(NC(=O)c2c(Nc3ccccc3)sc(C#N)c2NC(=O)CNc2ccccc2[N+](=O)[O-])cc1	HCT-116	cell growth or viability, SRB	0.1 µM, 48 h	viability	83.9%
c1cncc(-c2ccc(Nc3nccc(NC4CCCCC4)n3)cc2)c1	BJ	cell growth or viability, ATP luminescence	72 h	EC50	> 13 µM

Some of these lines once more:
Compound	target or system	test	setting	endpoint	result
CC(C)Nc1ccnc(Nc2cccc(-c3ccncc3)c2)n1	BJ	cell growth or viability, ATP luminescence	72 h	EC50	> 16 µM
CCCCn1cnc2ccc(-c3ccc(NC(=O)C4CCCC4)nc3)cc2c1=O	HCC827	cell growth or viability, CCK-8	72 h	IC50	3.63 µM
CC(=O)Nc1ccc(Oc2nnc(-c3ccc(Cl)cc3)c3ccccc23)cc1	HepG2	cell growth or viability, MTT	0.156 µM	cell death	16.1%
CCCCn1cnc2ccc(-c3ccc(NC(=O)Nc4ccc(OC)cc4)nc3)cc2c1=O	HCC827	cell growth or viability, CCK-8	72 h	IC50	1.12 µM
